Measurements from different studies.
Each line is one published result; not all experiments were run side by side. ± gives the spread as reported.
Target: Prothrombin (F2, Homo sapiens, UniProt P00734)

CC(C)c1ccc(C(=O)Nc2ccc(CN)cc2)c(O)c1
inhibition (enzyme activity, inhibitor; 10 µM): < 20%

Cc1cc(-c2ccc(/N=N/c3ccc4c(S(=O)(=O)O)cc(S(=O)(=O)O)c(N)c4c3O)c(C)c2)ccc1/N=N/c1ccc2c(S(=O)(=O)O)cc(S(=O)(=O)O)c(N)c2c1O
Hill slope (enzyme activity, inhibitor, thrombin chromogenic substrate hydrolysis; pH 7.4, 25–37 °C): 2.6 ± 1

CC(C)C[C@H](NC(=O)[C@H](Cc1c[nH]cn1)NC(=O)[C@@H](NC(=O)[C@H](CCCNC(=N)N)NC(=O)CNC(=O)[C@@H]1CCCN1C(=O)[C@H](CC(=O)O)NC(=O)[C@H](CC(=O)O)NC(=O)[C@H](CO)NC(=O)[C@@H]1CCCN1C(=O)[C@H](CC(N)=O)NC(=O)[C@H](Cc1ccc(O)cc1)NC(=O)[C@H](Cc1c[nH]cn1)NC(=O)[C@H](CCCNC(=N)N)NC(=O)[C@@H](N)Cc1c[nH]c2ccccc12)C(C)C)C(=O)O
bound fraction (binding, dot blot; 1 h, room temperature, added: thrombin 250 nM): ≥ 25%

CC(=O)O[C@@H]1[C@H](OC(C)=O)C[C@@]2(C)[C@@H](CC[C@@H](C)C23Cc2c(O)cc4c(c2O3)CN(CCCCNC(=N)N)C4=O)C1(C)C (stereo partly shown)
inhibition (enzyme activity, inhibitor, fluorescence; 200 µM): 72%

CC[C@H](C)[C@@H]1NC(=O)[C@@H](NC(=O)[C@H](CCSC)NC=O)CSCc2cccc(c2)CSC[C@@H](C(=O)N[C@H](C(=O)NCC(=O)N[C@@H](CO)C(=O)N[C@@H](CC(C)C)C(=O)NCC(=O)N[C@@H](Cc2c[nH]cn2)C(=O)N[C@@H](Cc2c[nH]cn2)C(=O)N[C@@H](Cc2c[nH]cn2)C(=O)N[C@@H](Cc2c[nH]cn2)C(=O)N[C@@H](Cc2c[nH]cn2)C(=O)N[C@@H](Cc2c[nH]cn2)C(=O)N[C@@H](CCCNC(=N)N)C(=O)N[C@@H](CC(C)C)C(=O)O)C(C)C)NC(=O)[C@H](CCCNC(=N)N)NC(=O)CNC(=O)[C@@H]2CCCN2C(=O)[C@H](CC(=O)O)NC(=O)[C@H](CCCNC(=N)N)NC(=O)[C@H](CO)NC(=O)[C@H](CCCCN)NC(=O)[C@H](CCCCN)NC(=O)[C@H]([C@@H](C)CC)NC1=O
Kd fold increase (binding, equilibrium ultrafiltration; baseline: linear peptide over cyclic peptide): 11 to 80 fold

CC(C)C[C@H](NC(=O)CNC(=O)CNC(=O)[C@H](CCCNC(=N)N)NC(=O)CNC(=O)[C@@H]1CCCN1C(=O)[C@H](CC(=O)O)NC(=O)[C@H](CS)NC(=O)[C@H](Cc1ccccc1)NC(=O)[C@H](CC(=O)O)NC(=O)[C@H](CC(N)=O)NC(=O)[C@H](Cc1ccc(O)cc1)NC(=O)[C@H](CC(N)=O)NC(=O)[C@H](CCCNC(=N)N)NC(=O)[C@@H](N)CCC(=O)O)C(=O)O
bound fraction (binding, dot blot; 1 h, room temperature, added: thrombin 250 nM): ≥ 25%

CC[C@H](C)[C@H](NC(=O)[C@@H]1CSSC[C@H](NC(=O)[C@H](Cc2ccc(O)cc2)NC(=O)CNC(C)=O)C(=O)N[C@@H](CO)C(=O)N[C@@H](CCCNC(=N)N)C(=O)N[C@@H](CO)C(=O)N[C@@H](Cc2ccc(O)cc2)C(=O)N2CCC[C@H]2C(=O)N2CCC[C@H]2C(=O)N[C@@H](C(C)C)C(=O)N1)C(=O)N1CCC[C@H]1C(=O)N[C@@H](CC(=O)O)C(N)=O
selectivity ratio (baseline: Ki thrombin over Ki MASP-2): 7130

Cc1ccc(C(=O)Nc2ccc(CP(=O)(O)O)cc2CP(=O)(O)O)cc1NC(=O)c1cccc(NC(=O)Nc2cccc(C(=O)Nc3cc(C(=O)Nc4ccc(CP(=O)(O)O)cc4CP(=O)(O)O)ccc3C)c2)c1
selectivity ratio (enzyme activity, inhibitor; baseline: factor XIa over thrombin): > 67.6 fold

Cc1ccc(C(=O)Nc2ccc(CN)cc2)c(O)c1
inhibition (enzyme activity, inhibitor; 10 µM): < 20%

C#CCC[C@H](NC=O)C(=O)N[C@H]1CSCc2cccc(c2)CSC[C@@H](C(=O)NCC(=O)N[C@@H](CO)C(=O)NCC(=O)N[C@@H](CO)C(=O)N[C@@H](CC(C)(C)C)C(=O)NCC(=O)N[C@@H](Cc2c[nH]cn2)C(=O)N[C@@H](Cc2c[nH]cn2)C(=O)N[C@@H](Cc2c[nH]cn2)C(=O)N[C@@H](Cc2c[nH]cn2)C(=O)N[C@@H](Cc2c[nH]cn2)C(=O)N[C@@H](Cc2c[nH]cn2)C(=O)N[C@@H](CCON=C(N)N)C(=O)N[C@@H](CC(C)(C)C)C(=O)O)NC(=O)CNC(=O)[C@H](C/C=C/CN)NC(=O)[C@H]([C@H](O)CC)NC(=O)[C@H](C)NC(=O)[C@H]([C@@H](C)CC)NC(=O)[C@H](Cc2ccc(O)c(F)c2)NC(=O)[C@H](CO)NC(=O)[C@H](CC(N)=O)NC(=O)[C@H](CCC(N)=O)NC(=O)[C@H](CC(C)(C)C)NC1=O
Kd fold increase (binding, equilibrium ultrafiltration; baseline: linear peptide over cyclic peptide): 11 to 80 fold

CC[C@H](C)[C@H](NC(=O)[C@@H]1CSSC[C@H](NC(=O)[C@H](Cc2ccc(O)cc2)NC(=O)CN)C(=O)N[C@@H](CO)C(=O)N[C@@H](CCCNC(=N)N)C(=O)N[C@@H](CO)C(=O)N[C@@H](Cc2ccc(O)cc2)C(=O)N2CCC[C@H]2C(=O)N2CCC[C@H]2C(=O)N[C@@H](C(C)C)C(=O)N1)C(=O)N1CCC[C@H]1C(=O)N[C@@H](CC(=O)O)C(=O)O
selectivity ratio (baseline: Ki thrombin over Ki MASP-2): 1280

CC(C)CCC[C@@H](C)[C@H]1CC[C@H]2[C@@H]3CC=C4C[C@@H](OS(=O)(=O)O)CC[C@]4(C)[C@H]3CC[C@]12C
Hill coefficient (binding, intrinsic fluorescence titration; pH 7.4, 25 °C): 1.7 ± 0.3

CSCC[C@H](NC(=O)[C@@H](N)Cc1ccc(O)cc1)C(=O)N[C@@H](CO)C(=O)N[C@@H](Cc1ccccc1)C(=O)N[C@H](C(=O)N[C@@H](CCCNC(=N)N)C(=O)N[C@@H](CCCNC(=N)N)C(=O)N[C@H](C(=O)N[C@@H](CCC(=O)O)C(=O)N[C@@H](CO)C(=O)N[C@@H](CC(=O)O)C(=O)N[C@@H](CCCCN)C(=O)N[C@@H](CC(C)C)C(=O)N[C@@H](Cc1c[nH]cn1)C(=O)N[C@@H](CO)C(=O)O)[C@@H](C)O)[C@@H](C)O
bound fraction (binding, dot blot; 1 h, room temperature, added: thrombin 250 nM): ≥ 25%

A few entries again:
CC(C)CCC[C@@H](C)[C@H]1CC[C@H]2[C@@H]3CC=C4C[C@@H](OS(=O)(=O)O)CC[C@]4(C)[C@H]3CC[C@]12C
Hill coefficient (binding, intrinsic fluorescence titration; pH 7.4, 25 °C): 1.7 ± 0.3
